# Assay results gathered from unrelated publications.
# Compare with care: the assays were run in different laboratories. Values joined by “and” are separate records of one study, mostly repeats; a detail may differ. Numbers after ± are the reported error.
# AHR: Aryl hydrocarbon receptor (AHR, Homo sapiens, UniProt P35869)
# GABA-A receptor; alpha-1/beta-2/gamma-2: GABA-A receptor; alpha-1/beta-2/gamma-2 (Rattus norvegicus, UniProt P18508+P62813+P63138)
# CHRM1: Muscarinic acetylcholine receptor M1 (CHRM1, Homo sapiens, UniProt P11229)
# Glutamate NMDA receptor; Grin1/Grin2c V689I: Glutamate NMDA receptor; Grin1/Grin2c (Rattus norvegicus, UniProt P35439+Q00961, V689I)
# Neuromedin-U receptor 2: Neuromedin-U receptor 2 (Mus musculus, UniProt Q8BZ39)
Structure (SMILES),target,test,system,setting,how to read,EC50
Nc1ncnc2c1ncn2[C@@H]1O[C@H](COP(=O)(O)OP(=O)(O)OC[C@H]2OC(O)[C@H](O)[C@@H]2O)[C@@H](O)[C@H]1O (some centres unmarked),"trpm2 (Danio rerio, UniProt A0A0R4IMY7)","channel activation, activator, inside-out patch clamp",,"with: 125 µM Ca2+, 2.5 µM diC8-PIP2",,56 ± 4 nM
c1ccc2c(c1)ccc1ccccc12,AHR,"reporter gene, agonist, yeast LacZ reporter",Saccharomyces cerevisiae,18 h,,43900 nM
CCOC(=O)c1cccc(NC(=O)c2sccc2S(=O)(=O)N(C)c2cccc(OCC)c2)c1,"Oxysterols receptor LXR-alpha (NR1H3, Homo sapiens, UniProt Q13133)",,,,,> 25000 nM
Cc1ccc2ccc3ccc(C)cc3c2c1,AHR,"reporter gene, agonist, yeast LacZ reporter",Saccharomyces cerevisiae,"18 h, 30 °C",baseline: 50% of 100 µM phenanthrene activity,6460 nM
Nc1nc2c(ncn2[C@@H]2O[C@@H]3COP(=O)(O)O[C@H]3[C@H]2O)c(=O)[nH]1,"Cone cGMP-gated channel (Morone saxatilis, UniProt Q3I0N1+Q3I0N2)","channel current, agonist, suction electrode",Morone saxatilis cone outer segments,with: 0.5 µM Ca2+,,171000 nM and 214000 nM
COc1cc(Nc2ncc3c(n2)-c2ccc(Cl)cc2C(c2c(F)cccc2OC)=NC3)ccc1C(=O)NCCOCCOCCNC(=O)COc1cccc2c1C(=O)N(C1CCC(=O)NC1=O)C2=O (centres unmarked),"Aurora kinase A (AURKA, Homo sapiens, UniProt O14965)","binding, kinobead competition",MV4-11 cell lysate,,,321 nM
O=S(=O)(O)C1CCNCC1,GABA-A receptor; alpha-1/beta-2/gamma-2,"chloride current, agonist, whole-cell patch clamp",HEK293 expressing GABAA,30 s,,6200 nM
CCCCC[C@H](O)/C=C/[C@H]1[C@H](O)CC(=O)[C@@H]1C/C=C\CCCC(=O)O,"Prostaglandin E2 receptor EP1 subtype (PTGER1, Homo sapiens, UniProt P34995, G87A)","IP1 accumulation, agonist",AD293,EP1 G87A mutant,,72.1 nM
CC1=C(C(=O)OC(C)C)C(c2ccccc2Br)C2=C(CC(C)(C)CC2=O)N1 (centres unmarked),"ADGRG1 (Homo sapiens, UniProt Q9Y653)","G13 activation, agonist, GTPγS binding, reconstitution",,,,2950 ± 410 nM
CCN(C(=O)C1CCN(S(=O)(=O)c2ccc3[nH]ncc3c2)CC1)[C@H](C)c1ccccc1,CHRM1,"calcium mobilization, positive allosteric modulator",CHO cells expressing CHRM1,,,4800 nM
CCn1c(-c2nc3cc(C(=O)N4CCC[C@@H](N)C4)cc(OC)c3n2C)cc2cccnc21,AHR,"agonist, FRET",,,,> 100000 nM
CCCCNc1c(C(=O)OCC)c(C)nc2c1cnn2CC,GABA-A receptor; alpha-1/beta-2/gamma-2,"chloride current, agonist, whole-cell patch clamp",HEK293 expressing GABAA,30 s,,12000 nM
N[C@H](CNC(=O)c1cc(Br)c(-c2ccccc2F)s1)C(=O)O,"Glutamate NMDA receptor; Grin1/Grin2c (Rattus norvegicus, UniProt P35439+Q00961, F754L)","receptor activation, positive modulator",rat,with: glutamate 300 µM,,20 nM
O=C1Nc2c(ccc(Cl)c2Cl)C1=NO,"CALM1/Kcnn2 (Homo sapiens, UniProt P0DP23+P70604)","ion current, activator, whole-cell patch clamp",,,,1700 nM
CCc1ccccc1-c1ccc(C(=O)NC[C@@H](N)C(=O)O)s1,Glutamate NMDA receptor; Grin1/Grin2c V689I,"receptor activation, positive modulator",rat,with: glutamate 300 µM,,5.5 nM
CC(C)C[C@H](NC(=O)[C@H](Cc1ccccc1)NC(=O)[C@H](Cc1ccc(O)cc1)NC(=O)CNC(=O)[C@H](CCCNC(=N)N)NC(=O)[C@H](CO)NC(=O)[C@H](CCC(N)=O)NC(=O)[C@H](CO)NC(=O)[C@H](C)NC(=O)[C@H](Cc1ccccc1)NC(=O)[C@@H]1CCCN1C(=O)[C@H](CO)NC(=O)[C@H](CCC(N)=O)NC(=O)[C@H](Cc1ccccc1)NC(=O)[C@H](CCC(=O)O)NC(=O)[C@H](CCC(=O)O)NC(=O)[C@H](CC(=O)O)NC(=O)[C@@H](NC(=O)[C@H](CCCNC(=N)N)NC(=O)[C@@H](N)Cc1ccccc1)C(C)C)C(=O)N[C@@H](Cc1ccccc1)C(=O)N[C@@H](CCCNC(=N)N)C(=O)N1CCC[C@H]1C(=O)N[C@@H](CCCNC(=N)N)C(=O)N[C@@H](CC(N)=O)C(N)=O,Neuromedin-U receptor 2,"β-arrestin recruitment, agonist",,,,0.33 nM
Cn1cc2c(C(=O)O)ccc(NS(=O)(=O)c3ccc(OCC4CCC4)c(Cl)c3)c2n1,CHRM1,antagonist,,,,> 10000 nM
O=C(O)C1=CCNCC1,GABA-A receptor; alpha-1/beta-2/gamma-2,"membrane potential, agonist, QP-DHM fluorescence",HEK293 expressing GABAA,,,7800 nM
CC(C)C[C@H](NC(=O)[C@H](Cc1ccccc1)NC(=O)[C@@H](N)Cc1ccc(O)cc1)C(=O)N[C@@H](Cc1ccccc1)C(=O)N[C@@H](CCCNC(=N)N)C(=O)N1CCC[C@H]1C(=O)N[C@@H](CCCNC(=N)N)C(=O)N[C@@H](CC(N)=O)C(N)=O,Neuromedin-U receptor 2,"Gq signalling, agonist, IP-1 accumulation",,average of runs,,68 nM
N[C@H](CNC(=O)c1ccc(-c2ccccc2Br)s1)C(=O)O,Glutamate NMDA receptor; Grin1/Grin2c V689I,"receptor activation, positive modulator",rat,with: glutamate 300 µM,,13 nM
